Measured values from different studies.
Each numbered part is a random draw from the data of one study; scales do not carry over between parts.
UniProt O14578, sequence (whole entry, looked up): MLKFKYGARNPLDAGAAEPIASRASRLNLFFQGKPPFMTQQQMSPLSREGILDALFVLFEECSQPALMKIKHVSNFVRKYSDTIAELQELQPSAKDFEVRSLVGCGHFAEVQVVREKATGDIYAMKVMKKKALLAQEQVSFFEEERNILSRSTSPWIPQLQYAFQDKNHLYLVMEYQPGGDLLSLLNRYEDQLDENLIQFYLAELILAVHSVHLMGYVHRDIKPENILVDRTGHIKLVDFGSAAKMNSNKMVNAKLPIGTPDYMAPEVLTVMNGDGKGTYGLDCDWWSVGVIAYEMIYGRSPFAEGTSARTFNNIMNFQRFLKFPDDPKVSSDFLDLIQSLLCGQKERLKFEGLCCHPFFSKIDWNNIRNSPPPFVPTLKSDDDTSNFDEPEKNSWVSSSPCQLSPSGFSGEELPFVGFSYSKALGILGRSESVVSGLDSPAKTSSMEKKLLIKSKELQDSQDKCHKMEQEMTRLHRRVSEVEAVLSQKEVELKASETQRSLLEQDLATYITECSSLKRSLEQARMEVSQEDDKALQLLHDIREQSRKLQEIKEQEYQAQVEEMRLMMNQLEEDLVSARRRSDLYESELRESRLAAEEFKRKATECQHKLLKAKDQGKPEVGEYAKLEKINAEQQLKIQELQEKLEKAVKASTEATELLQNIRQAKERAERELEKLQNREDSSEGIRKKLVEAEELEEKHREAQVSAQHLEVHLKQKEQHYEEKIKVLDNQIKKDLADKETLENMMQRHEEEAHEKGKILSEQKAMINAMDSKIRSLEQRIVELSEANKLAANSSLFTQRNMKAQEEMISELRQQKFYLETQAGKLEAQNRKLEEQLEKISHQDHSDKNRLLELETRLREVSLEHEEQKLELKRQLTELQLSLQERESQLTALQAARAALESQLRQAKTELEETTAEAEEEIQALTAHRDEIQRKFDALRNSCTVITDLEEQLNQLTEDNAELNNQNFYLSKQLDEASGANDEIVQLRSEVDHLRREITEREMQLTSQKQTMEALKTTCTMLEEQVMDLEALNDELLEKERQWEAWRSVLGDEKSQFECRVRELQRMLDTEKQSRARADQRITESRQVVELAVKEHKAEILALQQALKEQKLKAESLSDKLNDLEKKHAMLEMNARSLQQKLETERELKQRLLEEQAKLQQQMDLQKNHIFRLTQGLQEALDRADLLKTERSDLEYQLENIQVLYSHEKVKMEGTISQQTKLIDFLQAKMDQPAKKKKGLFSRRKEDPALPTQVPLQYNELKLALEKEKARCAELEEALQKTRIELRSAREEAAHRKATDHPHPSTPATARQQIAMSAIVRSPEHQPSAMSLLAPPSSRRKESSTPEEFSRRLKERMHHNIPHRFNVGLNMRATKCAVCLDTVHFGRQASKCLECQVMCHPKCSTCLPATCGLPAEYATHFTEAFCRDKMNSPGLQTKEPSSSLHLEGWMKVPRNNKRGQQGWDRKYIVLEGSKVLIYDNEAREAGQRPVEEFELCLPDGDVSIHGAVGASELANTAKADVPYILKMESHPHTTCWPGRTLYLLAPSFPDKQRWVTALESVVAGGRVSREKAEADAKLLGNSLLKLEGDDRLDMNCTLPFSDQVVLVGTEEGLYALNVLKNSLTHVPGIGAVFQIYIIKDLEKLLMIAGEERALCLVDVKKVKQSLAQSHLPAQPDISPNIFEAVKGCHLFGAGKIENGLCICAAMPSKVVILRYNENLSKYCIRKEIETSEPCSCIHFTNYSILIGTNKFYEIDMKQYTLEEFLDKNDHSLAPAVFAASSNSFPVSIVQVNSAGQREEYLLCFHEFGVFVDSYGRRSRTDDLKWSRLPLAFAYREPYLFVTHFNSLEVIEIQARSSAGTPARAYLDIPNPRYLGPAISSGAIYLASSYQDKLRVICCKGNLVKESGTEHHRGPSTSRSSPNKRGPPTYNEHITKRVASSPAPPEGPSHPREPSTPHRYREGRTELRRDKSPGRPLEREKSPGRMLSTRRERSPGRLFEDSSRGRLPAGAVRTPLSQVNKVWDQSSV
UniProt Q99558, sequence (whole entry, looked up): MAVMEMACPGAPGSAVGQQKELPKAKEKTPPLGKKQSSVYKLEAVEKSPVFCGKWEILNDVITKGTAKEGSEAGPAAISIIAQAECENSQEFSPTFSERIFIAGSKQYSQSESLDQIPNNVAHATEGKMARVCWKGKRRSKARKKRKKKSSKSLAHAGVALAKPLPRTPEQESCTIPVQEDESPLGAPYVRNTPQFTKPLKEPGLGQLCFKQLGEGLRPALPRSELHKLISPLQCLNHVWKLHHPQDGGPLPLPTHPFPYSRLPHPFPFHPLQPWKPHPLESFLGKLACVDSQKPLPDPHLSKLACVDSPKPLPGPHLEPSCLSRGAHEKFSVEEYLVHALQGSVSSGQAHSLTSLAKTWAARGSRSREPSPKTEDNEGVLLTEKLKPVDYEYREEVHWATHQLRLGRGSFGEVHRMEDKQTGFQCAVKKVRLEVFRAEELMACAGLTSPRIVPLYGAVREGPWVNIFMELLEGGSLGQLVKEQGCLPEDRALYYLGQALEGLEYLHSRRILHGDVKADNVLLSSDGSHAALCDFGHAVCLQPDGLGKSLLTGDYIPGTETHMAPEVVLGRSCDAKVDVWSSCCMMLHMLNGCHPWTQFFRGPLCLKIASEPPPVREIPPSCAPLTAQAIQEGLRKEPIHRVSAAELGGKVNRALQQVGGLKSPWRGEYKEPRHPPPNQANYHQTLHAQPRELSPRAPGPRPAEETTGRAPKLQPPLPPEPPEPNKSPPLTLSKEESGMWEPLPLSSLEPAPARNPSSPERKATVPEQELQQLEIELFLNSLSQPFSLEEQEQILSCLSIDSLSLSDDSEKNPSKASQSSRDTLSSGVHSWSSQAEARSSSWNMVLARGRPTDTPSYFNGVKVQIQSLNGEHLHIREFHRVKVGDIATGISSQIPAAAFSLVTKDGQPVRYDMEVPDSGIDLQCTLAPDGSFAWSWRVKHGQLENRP
UniProt P78368, sequence (whole entry, looked up): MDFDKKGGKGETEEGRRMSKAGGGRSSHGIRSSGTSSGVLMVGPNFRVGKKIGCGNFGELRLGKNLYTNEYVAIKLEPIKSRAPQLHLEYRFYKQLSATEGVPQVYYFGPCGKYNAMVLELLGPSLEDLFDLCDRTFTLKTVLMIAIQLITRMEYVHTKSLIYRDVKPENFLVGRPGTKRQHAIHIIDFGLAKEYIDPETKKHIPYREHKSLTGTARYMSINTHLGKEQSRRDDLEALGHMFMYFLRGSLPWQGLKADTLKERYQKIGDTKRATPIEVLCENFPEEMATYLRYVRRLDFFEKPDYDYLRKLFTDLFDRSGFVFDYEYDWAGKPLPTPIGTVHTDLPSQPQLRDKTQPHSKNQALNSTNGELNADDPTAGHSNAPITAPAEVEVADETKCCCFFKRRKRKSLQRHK
UniProt P36896, sequence (whole entry, looked up): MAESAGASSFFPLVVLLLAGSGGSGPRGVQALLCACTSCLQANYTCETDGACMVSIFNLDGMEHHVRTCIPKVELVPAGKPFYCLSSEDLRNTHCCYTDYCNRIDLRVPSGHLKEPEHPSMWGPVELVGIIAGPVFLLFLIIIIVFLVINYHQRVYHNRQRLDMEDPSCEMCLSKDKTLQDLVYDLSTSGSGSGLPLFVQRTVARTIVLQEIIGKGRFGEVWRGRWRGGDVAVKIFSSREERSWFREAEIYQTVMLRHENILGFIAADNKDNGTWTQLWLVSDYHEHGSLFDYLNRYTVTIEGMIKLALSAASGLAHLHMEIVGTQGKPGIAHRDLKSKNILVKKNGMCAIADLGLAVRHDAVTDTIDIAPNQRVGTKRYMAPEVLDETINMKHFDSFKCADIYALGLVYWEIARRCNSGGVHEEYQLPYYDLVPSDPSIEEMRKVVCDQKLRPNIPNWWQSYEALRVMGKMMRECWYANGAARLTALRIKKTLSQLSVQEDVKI
UniProt Q9C098, sequence (whole entry, looked up): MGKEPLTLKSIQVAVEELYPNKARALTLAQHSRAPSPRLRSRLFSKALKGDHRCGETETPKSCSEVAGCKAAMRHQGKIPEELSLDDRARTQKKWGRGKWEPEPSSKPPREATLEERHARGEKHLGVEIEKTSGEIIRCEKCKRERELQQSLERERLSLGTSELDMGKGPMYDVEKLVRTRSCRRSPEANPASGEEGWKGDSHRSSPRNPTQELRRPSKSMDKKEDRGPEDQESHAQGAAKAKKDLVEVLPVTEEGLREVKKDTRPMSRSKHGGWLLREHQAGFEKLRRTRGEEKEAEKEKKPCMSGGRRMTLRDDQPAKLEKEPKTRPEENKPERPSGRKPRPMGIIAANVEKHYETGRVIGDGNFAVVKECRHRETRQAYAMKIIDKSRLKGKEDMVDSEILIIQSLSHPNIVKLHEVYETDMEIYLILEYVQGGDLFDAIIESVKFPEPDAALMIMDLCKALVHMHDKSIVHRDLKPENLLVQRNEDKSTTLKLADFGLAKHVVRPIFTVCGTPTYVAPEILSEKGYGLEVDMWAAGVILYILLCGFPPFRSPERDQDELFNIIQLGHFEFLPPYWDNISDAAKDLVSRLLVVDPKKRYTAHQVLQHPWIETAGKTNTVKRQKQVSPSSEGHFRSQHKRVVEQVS

Set 1
Target: UBE2Q2 UBC core domain (UniProt Q8WVN8)
UniProt Q8WVN8, sequence (whole entry, looked up): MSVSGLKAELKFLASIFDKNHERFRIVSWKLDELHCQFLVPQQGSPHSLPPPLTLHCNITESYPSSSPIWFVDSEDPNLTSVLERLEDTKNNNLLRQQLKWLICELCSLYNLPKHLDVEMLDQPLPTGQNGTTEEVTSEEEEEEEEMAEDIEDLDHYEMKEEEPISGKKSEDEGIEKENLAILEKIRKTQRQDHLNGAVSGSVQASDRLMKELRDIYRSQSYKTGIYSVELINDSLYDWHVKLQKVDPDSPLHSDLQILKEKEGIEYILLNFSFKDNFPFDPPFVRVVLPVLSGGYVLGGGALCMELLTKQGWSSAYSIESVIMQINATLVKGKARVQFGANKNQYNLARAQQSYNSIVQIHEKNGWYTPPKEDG
Method: yeast two-hybrid
Matrix: yeast
Notes: mostly zero background
Relative to: not given
Reading: higher = stronger interaction
Measurement: lacZ reporter activity
B1: RNF181 RING domain (UniProt Q9P0P0); chain VIRGSQAELKCPVCLLEFEEEETAIEMPCHHLFHSSCILPWLSKTNSCPLCRYELPTDDDTY
B2: TRIM22 RING domain (UniProt Q8IYM9); chain KEVKMSPQEGQKRDVCEHHGKKLQIFCKEDGKVICWVCELSQEHQGHQTFRINEVVKECQEK
B3: ZNRF3 RING domain (UniProt Q9ULT6); chain DTLSSSSTSDCAICLEKYIDGEELRVIPCTHRFHRKCVDPWLLQHHTCPHCRHNIIEQKGNP
B4: Ltn1 RING domain (UniProt Q6A009); chain VDKRFEGVEDCMICFSVIHGFNYSLPKKACRTCKKKFHSACLYKWFTSSNKSTCPLCRETFF
B5: TRIM48 RING domain (UniProt Q8IWZ4); chain ISQVFQRELTCPICMNYFIDPVTIDCGHSFCRPCFYLNWQDIPILTQCFECIKTIQQRNLKT
Molecule = B1 (RNF181 RING domain); value = 0
Molecule = B2 (TRIM22 RING domain); value = 0
Molecule = B3 (ZNRF3 RING domain); value = 0
Molecule = MDDQGCPRCKTTKYRNPSLKLMVNVCGHTLCESCVDLLFVRGAGNCPECGTPLRKSNFRV (MNAT1 RING domain (UniProt P51948)); value = 0
Molecule = QLRRLQEERTCKVCLDRAVSIVFVPCGHLVCAECAPGLQLCPICRAPVRSRVRTF (BIRC7 RING domain (UniProt Q96CA5)); value = 0
Molecule = B4 (Ltn1 RING domain); value = 0
Molecule = KLWDINAHITCRLCSGYLIDATTVTECLHTFCRSCLVKYLEENNTCPTCRIVIHQSHPLQ (PCGF3 RING domain (UniProt Q3KNV8)); value = 0
Molecule = B5 (TRIM48 RING domain); value = 0

Set 2
Target: Max-binding protein MNT, bHLH-zipper, MAX partner unstated (MNT, Homo sapiens, UniProt Q99583, residues 220-300)
Method: protein-binding microarray
Molecule type: double-stranded DNA, one strand shown
Matrix: in vitro
Tested at: not given
Notes: k-mer, scored over probes, only values ≥0.25
Reading: higher = stronger binding
Measurement: E-score
Target sequence (chain): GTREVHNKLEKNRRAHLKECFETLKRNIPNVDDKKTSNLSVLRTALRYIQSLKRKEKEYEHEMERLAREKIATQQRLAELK
Strand = CCGTGTCA; value = 0.301
Strand = CGTGACAC; value = 0.393
Strand = ACATGTCA; value = 0.324
Strand = CATGGAGC; value = 0.282
Strand = CAGCCCCG; value = 0.258
Strand = CCGCGAGG; value = 0.277
Strand = CTACCCAC; value = 0.295
Strand = CACGTTCG; value = 0.267

Set 3
SMILES: CO[C@H]1CC[C@H](CNc2ccc(S(=O)(=O)NC(=O)c3ccc(N4CCN(CC5=C(c6ccc(Cl)cc6)CC(C)(C)CC5)CC4)cc3Oc3cnc4[nH]ccc4c3)cc2[N+](=O)[O-])CC1
Observed: cell-free assay
Method: competition with immobilised ligand
Tested at: 1 µM
Measurement: remaining binding
target = CIT (Homo sapiens, UniProt O14578); value = 74%
target = CDKL1 (Homo sapiens, UniProt Q00532); value = 94%
target = DCLK3 (Homo sapiens, UniProt Q9C098); value = 84%
target = TNIK (Homo sapiens, UniProt Q9UKE5); value = 100%
target = MAP2K7 (Homo sapiens, UniProt O14733); value = 100%
target = NEK10 (Homo sapiens, UniProt Q6ZWH5); value = 100%
target = KIT (Homo sapiens, UniProt P10721, L576P); value = 100%
target = RIPK1 (Homo sapiens, UniProt Q13546); value = 77%
target = TNK1 (Homo sapiens, UniProt Q13470); value = 81%
target = EGFR (Homo sapiens, UniProt P00533, G719S); value = 65%
target = PIK3CA (Homo sapiens, UniProt P42336, H1047Y); value = 70%
target = MAP4K5 (Homo sapiens, UniProt Q9Y4K4); value = 93%

Set 4
SMILES: COc1cc2c(cc1OC)-c1[nH]nc(Nc3cccc(F)c3)c1C2
Observed: enzyme activity
Mode: inhibitor
Tested at: 0.5 µM
Relative to: control
Measurement: remaining activity
target = NEK1 (Homo sapiens, UniProt Q96PY6); value = 93%
target = ACVR1B (Homo sapiens, UniProt P36896); value = 92.9%
target = ARAF (Homo sapiens, UniProt P10398); value = 98.9%
target = FGFR1 (Homo sapiens, UniProt P11362); value = 99.2%
target = ULK3 (Homo sapiens, UniProt Q6PHR2); value = 96.5%
target = MAPK3 (Homo sapiens, UniProt P27361); value = 93.7%
target = CSNK1G3 (Homo sapiens, UniProt Q9Y6M4); value = 95%
target = NEK6 (Homo sapiens, UniProt Q9HC98); value = 105%
target = MAP3K14 (Homo sapiens, UniProt Q99558); value = 105%
target = TBK1 (Homo sapiens, UniProt Q9UHD2); value = 101%
target = MAP3K5 (Homo sapiens, UniProt Q99683); value = 99.9%
target = CSNK1G2 (Homo sapiens, UniProt P78368); value = 89.7%

Repeated from above (set 3):
target = RIPK1 (Homo sapiens, UniProt Q13546); value = 77%
target = TNK1 (Homo sapiens, UniProt Q13470); value = 81%
target = EGFR (Homo sapiens, UniProt P00533, G719S); value = 65%
target = PIK3CA (Homo sapiens, UniProt P42336, H1047Y); value = 70%
target = MAP4K5 (Homo sapiens, UniProt Q9Y4K4); value = 93%
